Measurements of several laboratories.
Each numbered part is a random draw from the data of one study; scales do not carry over between parts. Substitutions count along the parent as printed.

Study 1
Target: RNA binding protein fox-1 homolog 2, RRM domain, GST-SBP tag (RBFOX2, Homo sapiens, UniProt O43251-10, residues 100-194)
Technique: RNA Bind-n-Seq
Molecule type: RNA
Medium: in vitro
Concentration: 365 nM
Setting: natural RNA segment, single round, ends assumed
Relative to: no-protein control
Direction: higher = stronger binding
Constant ends, left off below: GGGAGUUCUACAGUCCGACGAUC … UGGAAUUCUCGGGUGCCAA
Residues (chain): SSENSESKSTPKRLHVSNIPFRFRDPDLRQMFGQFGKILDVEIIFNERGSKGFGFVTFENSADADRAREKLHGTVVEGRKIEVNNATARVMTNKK
Strand	RBNS enrichment (R)
ACACCAUGUUUGAGCUCAGACCCCCACUCUCAUUCCCCAGGUGGCUGACCCAGUCCCUGGGGGAAGCCCUGGAUUUCAGAAAGAGCAAGUCUGGAUCUGGGACCCUUUCC	0.288
GCACCUGACUGGGAGCUAGGGGACCACCUGCCUUGGCCAGACCUGGGACGCCCCCAGACCCUGACUUUCUCCUGCGUGGGCCGUCUCCUCCUGCGGAAGCAGUGACCUCU	0.465
AACCUUCAGUGGAAGCAUGUCAUCAAUUCAUCACAGGCCUUUCCUGUCUUUGAAUUAGAAUCCAGACUAGUGUGGGAAGCAGUCUCUCUGGACUUUGAUUUAGGGAUCAU	4.35
ACAACCCGGCCUACAUGGAUGCCCCGAAGGCGGCCCUCUGAGCAUUCCCUGGCCUCUCUGGCUGCCACUUGGUUAUGUUGUGUGUGUGCGUGAGUGGUGUGCAGGCGCGG	0.849
CUAAAAAUACAAAAAAAAAUUAGCUAGGCGUAGUGGUUGGCACCUAUAGUCCCAGCUACUCGGAAGGCUGAAGCAGGAGAAUGGUAUGAAUCCAGGAGGUGGAGCUUGCA	6.85
AUUUUCUUGGUGUUCCUUUCUUCCAGCACAGUGCAAGAUAGAGUUGCUGUUGAUGCCAUAUGUUUAGACUGCUGUUCUGACCCUAUUUAUCUUUCUCUCUGCCAUUUGGA	0.736
UCUCCCAAAGCUAAAUCUUUAUAUUAGGAACAAUUAAAUAUUGACUUAAGUUGUAAAAAUUGAGAGUACAAUAUCUUUAGGGAUAGUCAUUAUUUCUCACAACUAGUUCU	0.634
CUGCUCUAAGCUUUGACACGUCAAAAUGUGGGAUCAGAAAGAAAAAAAUCAUGAUAUUUAAAAAUGGUCAAAUAUUUGAGGCAAAAAAAAAAAAAAAAAGUGUCUCCAGG	0.438
CAUGCAUGAGAGAGAAGUGGCUGGCCACAGCCAGAGGGAACAGUAACAGCCCAGGGGCCUUUAUUUUGGGAAAGGCUGUCCCGGGCUGUUACUGUCUCUUCUGGUUAUAA	15.5
AUGUCAGCUGAGCCUCCUGCCCUCCCCCAGGAACAUGCACGCUCACUCUGCUUCCUUGUGGGUGGCCUUUUUUUACCGAUCCCCUUUUUUAUUUUUUACAACCGGACCUC	14.6
UGGUUUCCCAAAUGACUCAGUUUUUGCUUUCUUUUCUGAAGCCCGAGUGCUAGGUAGGAAUGGCCACAGUUUGAAGAGCUAGAAAUAGCCUUAGGUCGGGCUUCUGUUAU	1.43
UAUCUUAAAUGUCCCUGAUGAGGAGAGCAGUCAUCAAUUAAAUAUAUAAGCUCUUAAAAUGAGAAUGGAAGUGUCAGUAUAGACCCAGUGUACUUAAGUGCUGAUGACUG	0.835

Study 2
Target: Interferon regulatory factor 7, full length, phosphomimetic (IRF7, Homo sapiens, UniProt Q92985, residues 1-503, S101K/S471D/S472D/S475D/S476D/S477D/S483D/S484D/S487D)
Sequence of UniProt Q92985 (whole entry, unmodified, looked up): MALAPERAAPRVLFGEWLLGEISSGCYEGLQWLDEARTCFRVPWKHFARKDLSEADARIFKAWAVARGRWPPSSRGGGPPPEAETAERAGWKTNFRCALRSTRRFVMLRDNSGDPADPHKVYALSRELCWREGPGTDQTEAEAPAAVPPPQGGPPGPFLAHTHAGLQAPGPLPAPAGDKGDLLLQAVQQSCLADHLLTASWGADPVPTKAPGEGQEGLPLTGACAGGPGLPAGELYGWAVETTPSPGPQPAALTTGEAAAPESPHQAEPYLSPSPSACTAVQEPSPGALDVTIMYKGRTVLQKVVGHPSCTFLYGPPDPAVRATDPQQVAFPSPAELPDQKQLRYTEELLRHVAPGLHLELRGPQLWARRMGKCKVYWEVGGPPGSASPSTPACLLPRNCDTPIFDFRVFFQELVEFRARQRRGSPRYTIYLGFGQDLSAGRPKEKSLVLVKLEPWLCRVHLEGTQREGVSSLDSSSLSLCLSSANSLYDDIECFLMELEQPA
Technique: protein-binding microarray
Molecule type: double-stranded DNA, one strand shown
Medium: in vitro
Concentration: 250 nM
Setting: 60-bp whole probe
Added: salmon DNA 0.4 mg/ml
Relative to: random background probes
Direction: higher = stronger binding
Constant ends, left off below: GCCTAGCAC … GTCTTGATTCGCTTGACGCTGCTG
Strand	log fluorescence
GACCATTTCAGTTTCGAGACGTGCTAG	5.43 z-score
TTAGGTTTCCCTTTCCTTTAGTGCTAG	5.93 z-score
GACGGACTGGAGTATCGGGACGTGCTA	-0.456 z-score
TTAGGTCTCCTACTCCTTTAGTGCTAG	-0.036 z-score
GACGAACTGGGGTTTCGGGACGTGCTA	1.18 z-score
GACGGACTGGGGTTTCGAGACGTGCTA	1.67 z-score
TTAGGTTTCTGGTTTCGGTTAGTGCTA	10.6 z-score
TCTTTTTTTTCTTTAAAAGTGTGCTAG	1.3 z-score
TCAATTTCCACTTTCTTACTGTGCTAG	2.63 z-score
TCACCACTCTTTCCTCACACTGTGCTA	0.654 z-score
CCTTTTTTTTTTTTTCTGATGTGCTAG	1.32 z-score
GTCGATTCCAGTTTCGAGACGTGCTAG	5.92 z-score
ATTTTTTAGCTTCTCAATTAGTGCTAG	0.742 z-score
GACGACTTCAGTCTCGAGACGTGCTAG	0.371 z-score
TATATATCCATTATAGATGAGTGCTAG	0.978 z-score
TTACGTTTCGGTTTCGGTTAGTGCTAG	12.8 z-score
GACGGTATCGTTCTCGGGACGTGCTAG	0.801 z-score
GACGAACTGAGTATCAAGACGTGCTAG	-0.281 z-score

Study 3
Target: Phosphate system positive regulatory protein PHO4, full length, GST-tagged (PHO4, Saccharomyces cerevisiae, UniProt P07270, residues 1-312)
Technique: competition protein-binding microarray
Molecule type: double-stranded DNA, one strand shown
Medium: in vitro
Concentration: 2 µM
Setting: whole 60-bp probe, lowest competitor level
Added: Cbf1 competitor, 0.05 µM
Direction: higher = stronger binding
Constant ends, left off below: … GTCTTGATTCGCTTGACGCTGCTG
Construct (chain): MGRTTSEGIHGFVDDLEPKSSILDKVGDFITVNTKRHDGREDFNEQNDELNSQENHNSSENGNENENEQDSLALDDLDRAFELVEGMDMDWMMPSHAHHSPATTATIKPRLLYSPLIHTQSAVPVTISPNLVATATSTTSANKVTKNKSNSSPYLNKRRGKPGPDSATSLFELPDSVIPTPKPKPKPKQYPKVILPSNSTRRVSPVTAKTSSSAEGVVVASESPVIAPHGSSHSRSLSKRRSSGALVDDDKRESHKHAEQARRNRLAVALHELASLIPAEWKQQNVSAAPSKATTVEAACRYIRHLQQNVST
Strand	fluorescence intensity [a.u.]
TCAATATAATTCTGTCATGCTTGGCCTTACTGCTTA	4750
ATATGCGATTTCCATCACGATATGTCAATTATAGGC	6060
AAAATTTGGCAACCTAAAGGAGATTTTGGACGAGTT	2290
ACTAATGCAGGCAGAAGGAGATCCATACCTTCAAAT	3740
ATGATGGGAAACCATCACGTACGGTTTGGGAAAGGC	5110
CTGTGGACGAATCGGCACGCTTATTATTTAGGAGTG	9140
ACTCCCGGTTATCTAGACGTGTTGATCTTGGACACT	4770
TGCGCAACAACTTGCGAAGTGGGTGTATGTCTAGAA	4550
CACTACGGTCTTAGATTCGTGCGATTTCCGGCTACC	5300
TGGATTAGTACTGTAGGCGTGCAAACTTTGTTCGCA	7190
GCAGGTTCATTTACCTATGTGACGGGAGCTTCCATC	3170

Study 4
Target: Histone acetyltransferase KAT6A, winged helix 2, GST fusion (KAT6A, Homo sapiens, UniProt Q92794, residues 85-181)
Technique: protein binding microarray
Molecule type: double-stranded DNA, one strand shown
Medium: in vitro
Concentration: not given
Setting: 8-mer, flanks averaged, mean of 2 arrays, mostly near background
Relative to: not given
Direction: higher = stronger binding
Residues (chain): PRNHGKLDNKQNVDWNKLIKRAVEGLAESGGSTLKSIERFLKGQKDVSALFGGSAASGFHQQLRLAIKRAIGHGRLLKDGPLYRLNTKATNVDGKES
Strand	E-score
CCCGGTCA	0.0261
CTAGGAGC	0.111
ATCCGTTC	0.0659
GCAGCACA	0.0464
AACGCCGA	0.143
AAGAGTGT	0.0164
CACTAGTG	0.0702
GTCGGGTA	-0.0279
ACGATAGG	-0.192
AGTCGGAA	-0.0882
ATGCATTG	-0.083
GCTGGGAC	-0.00531
ACACTGAA	0.0874
GCATTCCC	-0.026
TGAGTTAA	0.00818
AAGCGTAG	-0.0158
ATGGGTAC	-0.183
CTCTCGAC	0.0866

Study 5
Target: Sal-like protein 4, full length isoform A (SALL4, Homo sapiens, UniProt Q9UJQ4, residues 1-1053)
Sequence of UniProt Q9UJQ4 (whole entry, looked up): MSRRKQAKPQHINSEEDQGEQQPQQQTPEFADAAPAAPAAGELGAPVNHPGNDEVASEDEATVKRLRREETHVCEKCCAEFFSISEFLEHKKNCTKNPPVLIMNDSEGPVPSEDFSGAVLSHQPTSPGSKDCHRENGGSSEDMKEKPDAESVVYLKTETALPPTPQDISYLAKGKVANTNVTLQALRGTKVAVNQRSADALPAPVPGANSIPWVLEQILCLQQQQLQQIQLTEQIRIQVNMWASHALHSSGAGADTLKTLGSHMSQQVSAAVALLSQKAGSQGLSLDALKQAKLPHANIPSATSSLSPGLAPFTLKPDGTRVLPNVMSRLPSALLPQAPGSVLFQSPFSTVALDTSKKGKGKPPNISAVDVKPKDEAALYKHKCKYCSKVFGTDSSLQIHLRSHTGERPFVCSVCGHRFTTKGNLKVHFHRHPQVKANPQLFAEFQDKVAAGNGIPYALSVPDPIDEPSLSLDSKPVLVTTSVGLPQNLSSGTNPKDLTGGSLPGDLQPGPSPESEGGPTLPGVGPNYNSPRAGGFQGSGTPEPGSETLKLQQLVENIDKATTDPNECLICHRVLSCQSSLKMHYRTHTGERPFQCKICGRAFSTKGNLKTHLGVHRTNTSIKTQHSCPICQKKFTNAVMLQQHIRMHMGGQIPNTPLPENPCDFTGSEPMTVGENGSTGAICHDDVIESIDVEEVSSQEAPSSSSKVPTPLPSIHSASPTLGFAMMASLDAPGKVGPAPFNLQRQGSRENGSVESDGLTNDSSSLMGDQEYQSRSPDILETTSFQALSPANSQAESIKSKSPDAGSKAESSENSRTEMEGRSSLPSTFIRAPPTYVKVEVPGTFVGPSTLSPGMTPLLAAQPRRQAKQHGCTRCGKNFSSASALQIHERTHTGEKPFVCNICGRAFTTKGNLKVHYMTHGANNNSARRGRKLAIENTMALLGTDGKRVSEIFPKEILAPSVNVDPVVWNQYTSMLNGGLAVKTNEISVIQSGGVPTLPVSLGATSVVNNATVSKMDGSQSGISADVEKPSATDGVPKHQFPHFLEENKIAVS
Technique: universal PBM
Molecule type: double-stranded DNA, one strand shown
Medium: in vitro
Concentration: 600 nM
Setting: 8-mer, flanks averaged, mean of replicates
Direction: higher = stronger binding
Strand	E-score
AACGACGA	0.0296
CAATCTTA	0.179
ACACGTCA	-0.0331
CGCAGCGA	-0.302
AAAATCGC	0.142
GCCCTCGC	-0.276
CTCTCAAC	-0.159
TTAACGAA	0.194
ATGGCGCA	-0.0957
CGATGAAG	0.16
GGCCATCA	-0.157
GTCGATGA	-0.0375
ATAGACCC	0.109
AAGGCCCG	-0.409
CCTAACTA	0.132
AGGTCTCG	-0.172
GGCTGACA	-0.101
AACTATAG	0.266
GTAGAGAC	-0.0347
CTCTGCAA	0.0823
GCGCCCAC	-0.316
CAGCTGGA	-0.152
ACGTGTAC	-0.0192
AACCCTAC	-0.14
TACGGTCA	-0.0651

Study 6
Target: ABI1, truncated, D143A, DHFR fusion (Arabidopsis thaliana)
Technique: DHFR PCA, deep sequencing
Medium: yeast
Setting: methotrexate growth selection, single substitutions
Added: (+)-ABA 200 µM
Relative to: wild-type fitted maximum
Direction: higher = stronger binding
Starting sequence: PYL1, truncated, DHFR fusion (Arabidopsis thaliana); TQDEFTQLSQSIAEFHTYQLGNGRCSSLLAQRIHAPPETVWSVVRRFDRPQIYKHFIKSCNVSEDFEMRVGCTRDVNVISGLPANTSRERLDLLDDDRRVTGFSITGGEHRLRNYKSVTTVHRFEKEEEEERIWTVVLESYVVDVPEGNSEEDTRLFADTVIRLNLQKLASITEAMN; partner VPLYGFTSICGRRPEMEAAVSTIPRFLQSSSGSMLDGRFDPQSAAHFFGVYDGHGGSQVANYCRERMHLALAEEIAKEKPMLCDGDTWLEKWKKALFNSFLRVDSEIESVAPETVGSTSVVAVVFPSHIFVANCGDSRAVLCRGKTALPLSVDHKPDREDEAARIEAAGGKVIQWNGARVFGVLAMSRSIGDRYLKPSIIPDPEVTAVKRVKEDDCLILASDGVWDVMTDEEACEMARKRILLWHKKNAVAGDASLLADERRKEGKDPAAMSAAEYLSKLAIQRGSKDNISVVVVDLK
Variant	relative binding score [%]
C60V	98.8
I52S	98.9
E64C	98
Q51M	94.5
R113F	88.5
R69G	96.5
I105T	76.7
S9W	85.2
K126R	107
E130R	108
E89A	-5.63
D3H	91
L166R	2.4
S26C	97.9
D3A	96.6
S117E	6.79

Study 7
Target: RING finger protein unkempt homolog, zinc fingers 1-6, GST-SBP tag (UNK, Homo sapiens, UniProt Q9C0B0, residues 30-357)
Technique: RNA Bind-n-Seq
Molecule type: RNA
Medium: in vitro
Concentration: not given
Setting: RNA with constant flanks, human and mouse sites, ends assumed
Relative to: input RNA pool
Direction: higher = stronger binding
Constant ends, left off below: GGGAGUUCUACAGUCCGACGAUC … CAACAGAGGAUUGAGCAUCA
Target sequence (chain): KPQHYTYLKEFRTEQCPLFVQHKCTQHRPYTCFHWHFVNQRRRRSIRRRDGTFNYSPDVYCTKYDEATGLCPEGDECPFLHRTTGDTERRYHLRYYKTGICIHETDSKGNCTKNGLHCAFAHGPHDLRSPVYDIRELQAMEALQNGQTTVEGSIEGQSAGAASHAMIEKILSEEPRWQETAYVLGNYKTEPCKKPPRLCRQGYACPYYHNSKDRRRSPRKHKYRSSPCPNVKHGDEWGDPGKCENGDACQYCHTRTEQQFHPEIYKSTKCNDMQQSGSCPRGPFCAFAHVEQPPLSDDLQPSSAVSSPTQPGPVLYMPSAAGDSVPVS
Strand	bound/input enrichment
CCCUGUGCCCGUGGUUCUCUGCGCAUGCCCGGACCCCGGCGGCUCCGGAGUCCGGGAGGCUCUGGCUGCUCCAGUCGCGGGUCCGGGCCCCGCCUCUCCACUCGGCGGUGGCGUCCGUGU	0.236 ratio
CAGCGUCUCUGGGUGGGCCGCUGGCUGGCAGGCCGGGCAGGGGGCCUGCAGCAGGACUGUGCUCUGCGAGUGGAUGCUAGCGCCAGCGCCCGAGACGCAGCCCUGGUCUACCAUAAGCUG	0.347 ratio
UGGACUGGGGAGUGGCCUGAGACGGAAAUCGUUGCUAAUCUGUGGAUGAAGCAGCCUGAUGCGGCCAGGAAGGAGAGCGAGUUCCUGCUAAACUCUUGUCCGGAGCGACUGCUAGGCCAC	0.088 ratio
GCCGGAAACAAACCAGAAGCUGUAGAAGUAACAUUUGCAGAUUUUGAUGGCGUCCUUUAUCAUAUUUCAAAUCCUAAUGGAGACAAAACAAAAGUGAUGGUCAGUAUUUCUUUGAAAUUC	0.694 ratio
AGGCGCAAAGCAGCAAAUGUCACGUUACUCACCUCCCUGGUGGAAGGAGAAGCUGUUCACUUAGCUAGGGAUUUUGGGUACAUUUGCGAAACGGAGUUUCCCGCCAAAGCCGUCUCUGAG	0.0921 ratio
CAUUCUGAAUUUCAUAUAGUAUAAGUUAGACAUUGCUUAAUCCUUUUUUAAAUGUAUUUACAUAGACACGAACACUCAAAUUGUUGGAUUUUUAAAACUAUAUCUGACAUAAUUUUUUUC	11.7 ratio
AAUAUGAUAACACAAUAUUGGCCUGAUCGGGAAGCCACACCAGGGGACAUCGCUCCAUAUACUAUUCCAGAAGAAGACCGGCAUUGUAUUCGAGAAAAUAUUGUAGAAGCCAUUAUCCAC	0.207 ratio

Repeated from above (study 5):
Strand	E-score
ACACGTCA	-0.0331
CCTAACTA	0.132
GGCCATCA	-0.157
CGCAGCGA	-0.302
AAGGCCCG	-0.409
GCGCCCAC	-0.316
CTCTGCAA	0.0823
CGATGAAG	0.16
